Measured values pooled from the literature.
Numbers after ± are the reported error. In brackets after ≈: the same amount, converted by molar mass.

Compound	tested on	assay	test system	conditions	quantity	result
CN1CCC[C@]1(C)/C=C/S(=O)(=O)NC(=O)Nc1c2c(cc3c1CCC3)CCC2			human, plasma	oral, 25 mg, single dose, healthy volunteers	AUC(0-t)	27000 ng·h/mL
NS(=O)(=O)Nc1ncnc(OCCOc2ncc(Br)cn2)c1-c1ccc(Br)cc1		metabolite formation	female Beagle dog, liver microsomes	5 mg/kg daily for 4 weeks	Vmax	1030 ± 23 pmol/min/mg
[64Cu+2].c1ccc(CNCc2ccc(CN3CCCN4CCNCCCN(CC4)CC3)cc2)nc1	CXCR4		NOD/SCID mouse, U87 and U87-stb-CXCR4 xenografts, blood	iv, 90 min, ex vivo	tissue uptake	1.71 ± 0.17 %ID/g
CSCOC1C(=O)C2(C)C(OCSC)CC3OCC3(OC(C)=O)C2C(OC(=O)c2ccccc2)C2(O)CC(OC(=O)C(O)C(C=C(C)C)NC(=O)OC(C)(C)C)C(C)=C1C2(C)C (stereo not drawn)			female Sprague-Dawley rat, plasma	intravenous, 1 mg/kg	AUC(0-t)	109 ng·h/mL
CC(=O)N[C@H](CC(=O)O)C(=O)N[C@H](Cc1c[nH]c2ccccc12)C(=O)N[C@H](Cc1ccccc1)C(=O)N[C@H](CCCCN)C(=O)N[C@H](C)C(=O)N[C@H](Cc1ccccc1)C(=O)N[C@H](Cc1ccc(O)cc1)C(=O)N[C@H](CC(=O)O)C(=O)N[C@H](CCCCN)C(=O)N[C@@H](C(=O)N[C@H](C)C(=O)N[C@H](CCC(=O)O)C(=O)N[C@H](CCCCN)C(=O)N[C@H](Cc1ccccc1)C(=O)N[C@H](CCCCN)C(=O)N[C@H](CCC(=O)O)C(=O)N[C@H](C)C(=O)N[C@H](Cc1ccccc1)C(N)=O)C(C)C			statin-treated high-risk CHD men, plasma	oral, 500 mg daily, day 13, 0 to 8 h, mean observed, outlier excluded	AUC(0-t)	104 ng·h/mL
CN1CCC(N[C@@H]2CCc3[nH]c4c(C(N)=O)ccc(-c5ccccc5Cl)c4c3C2)CC1			BALB/c mice	iv, 2 mg/kg	AUC(0-t)	246 ng·h/mL
CC(C)(O)c1ncc([S@](N)(=O)=NC(=O)Nc2c3c(cc4c2CCC4)CCC3)s1			human, plasma	oral, 600 mg, single dose, fasted, healthy volunteers	AUC(0-t)	792000 ng·h/mL
Cc1ccc(OCC(=O)N(Cc2cccs2)c2ccn[nH]2)cc1			male Sprague-Dawley rat, plasma	oral, 30 mg/kg, single dose	AUC(0-t)	6.22 ng·h/mL
CCCCC/C=C/C(=O)CCc1ccc(O)c(OC)c1	mAb 4-AT4	antibody binding, indirect competitive ELISA		added: coating antigen hapten 1-OVA	IC50	0.0257 µg/mL (≈ 0.0928 µM)
Cc1cccc(O[C@H]2CCC[C@@H](C(C)CNCc3ccncc3)C2)c1 (relative stereo)			C57BL/6 female mice, plasma	intravenous, 3 mg/kg	AUC(0-t)	695 ng·h/mL
[64Cu+2].c1cnc(CNCc2ccc(CN3CCCN4CCNCCCN(CC4)CC3)cc2)nc1	CXCR4		NOD/SCID mouse, U87 and U87-stb-CXCR4 xenografts, liver	iv, 30 min, ex vivo	tissue uptake	79.2 ± 5.73 %ID/g
CC12CC(c3ccc(S(C)(=O)=O)cc3)C3=C4CCC(=O)C=C4CCC3C1CCC2(O)C(F)(F)C(F)(F)F (stereo not drawn)			human, plasma	oral, 5 mg, single dose, fasted	AUC(0-t)	317 ng·h/mL
